Measurements collected from several papers.
Each numbered part is a random draw from the data of one study; scales do not carry over between parts.
Sequence of UniProt Q9C5X0 (whole entry, looked up): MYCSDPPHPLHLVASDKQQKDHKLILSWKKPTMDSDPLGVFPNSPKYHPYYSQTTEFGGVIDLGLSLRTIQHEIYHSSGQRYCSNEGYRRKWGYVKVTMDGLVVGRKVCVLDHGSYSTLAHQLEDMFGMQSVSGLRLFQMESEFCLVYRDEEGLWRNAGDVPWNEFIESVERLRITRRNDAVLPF
Sequence of UniProt P05771 (whole entry, looked up): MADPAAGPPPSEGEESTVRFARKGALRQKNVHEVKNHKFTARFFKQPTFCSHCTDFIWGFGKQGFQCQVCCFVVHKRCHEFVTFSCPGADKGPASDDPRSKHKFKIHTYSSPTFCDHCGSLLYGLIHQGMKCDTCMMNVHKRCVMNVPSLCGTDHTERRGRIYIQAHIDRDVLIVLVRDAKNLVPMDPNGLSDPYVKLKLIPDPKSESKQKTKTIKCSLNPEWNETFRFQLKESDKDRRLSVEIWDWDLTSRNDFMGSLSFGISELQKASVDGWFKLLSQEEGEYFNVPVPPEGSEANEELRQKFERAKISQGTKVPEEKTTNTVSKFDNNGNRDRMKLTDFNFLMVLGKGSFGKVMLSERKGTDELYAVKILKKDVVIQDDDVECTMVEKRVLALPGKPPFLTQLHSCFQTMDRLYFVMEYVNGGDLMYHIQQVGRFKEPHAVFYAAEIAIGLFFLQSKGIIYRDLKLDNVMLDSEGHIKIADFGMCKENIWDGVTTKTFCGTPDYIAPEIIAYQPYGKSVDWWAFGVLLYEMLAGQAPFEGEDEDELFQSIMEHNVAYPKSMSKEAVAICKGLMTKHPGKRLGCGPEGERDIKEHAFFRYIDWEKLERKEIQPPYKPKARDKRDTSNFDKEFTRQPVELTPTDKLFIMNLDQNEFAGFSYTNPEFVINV

Study 1 — technique: aptamer microarray, sandwich; form: DNA with 2'F-ANA; matrix: in vitro; tested at: 200 nM; with: Cy3 exosite-II aptamer, 400 nM; reading: higher = stronger binding; oligonucleotide: GGTTGGTGTGGTTGG
Target: Prothrombin, mature alpha-thrombin (F2, Homo sapiens, UniProt P00734)
Notes: whole 15-mer aptamer, many near background
| Modification | mean fluorescence intensity |
| --- | --- |
| 2'F-ANA at 1 5 9 10 14 | 46.6 a.u. |
| 2'F-ANA at 1 2 3 4 10 11 15 | 56.5 a.u. |
| 2'F-ANA at 3 4 6 7 8 9 10 13 14 | 186 a.u. |
| 2'F-ANA at 1 3 4 5 7 9 10 11 14 | 45.1 a.u. |
| 2'F-ANA at 3 7 8 14 15 | 609 a.u. |
| 2'F-ANA at 1 2 6 8 9 14 | 55 a.u. |
| 2'F-ANA at 2 4 7 8 10 13 14 | 70 a.u. |
| 2'F-ANA at 1 3 6 7 10 11 12 15 | 87.6 a.u. |

Study 2 — technique: RNAcompete; form: RNA; matrix: in vitro; tested at: 20 nM; notes: 7-mer, probes averaged, single round; reference: mean of 7-mers; reading: higher = stronger binding
Target: PABPC1L2, full length, GST fusion (mouse, UniProt A0ABA7IW68)
Target sequence (chain): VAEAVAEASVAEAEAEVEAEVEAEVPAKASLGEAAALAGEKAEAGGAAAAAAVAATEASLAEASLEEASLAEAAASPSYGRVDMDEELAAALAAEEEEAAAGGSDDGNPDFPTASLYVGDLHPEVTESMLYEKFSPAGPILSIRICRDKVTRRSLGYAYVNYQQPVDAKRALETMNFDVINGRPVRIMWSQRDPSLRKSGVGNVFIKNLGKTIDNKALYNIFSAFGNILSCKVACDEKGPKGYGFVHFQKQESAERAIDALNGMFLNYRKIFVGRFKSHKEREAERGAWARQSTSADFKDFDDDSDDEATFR
| Oligonucleotide | 7-mer Z-score |
| --- | --- |
| UGCCAGU | -0.333 |
| CGAGGCU | -0.0989 |
| CGCCAGG | -0.287 |
| AGAGGAC | 0.231 |
| GCAUGGU | -0.151 |
| CGCGAGC | -0.356 |
| UUGACAC | -0.141 |
| CGAAUCA | 0.109 |

Other studies, line by line
B1: IAA33 (Arabidopsis thaliana, UniProt Q9FKM7); chain MNSFEPQSQDSLQRRFHQDNSTTQQPRDTTTPFIPKPASKNHNNSNSSSGAAGRSFQGFGLNVEDDLVSSVVPPVTVVLEGRSICQRISLDKHGSYQSLASALRQMFVDGADSTDDLDLSNAIPGHLIAYEDMENDLLLAGDLTWKDFVRVAKRIRILPVKGNTRQVKRNE
| Molecule | target or system | assay | conditions | scale | endpoint | value |
| --- | --- | --- | --- | --- | --- | --- |
| FC(F)(F)c1ccc(/C=C/c2nc(COc3ccc(CCCCn4ccnn4)cc3)co2)cc1 | Protein kinase C beta type, isoform beta-I (PRKCB, Homo sapiens, UniProt P05771) | enzyme activity, inhibitor | 0.5 µM | reference: control | remaining activity | 103% |
| B1 (IAA33) | IAA34 (Arabidopsis thaliana, UniProt Q9C5X0) | two-hybrid |  | reference: out of 4 tests, higher = firmer interaction | positive tests | 4 |

A few entries again (study 2):
| Oligonucleotide | 7-mer Z-score |
| --- | --- |
| AGAGGAC | 0.231 |
| GCAUGGU | -0.151 |
